Measurements collected from several papers.
Every numbered part comes from another study and shows a few of its results, in no order. Several values in a cell are separate wells, animals, samples, runs or records.
UniProt P15056, sequence (whole entry, unmodified, looked up): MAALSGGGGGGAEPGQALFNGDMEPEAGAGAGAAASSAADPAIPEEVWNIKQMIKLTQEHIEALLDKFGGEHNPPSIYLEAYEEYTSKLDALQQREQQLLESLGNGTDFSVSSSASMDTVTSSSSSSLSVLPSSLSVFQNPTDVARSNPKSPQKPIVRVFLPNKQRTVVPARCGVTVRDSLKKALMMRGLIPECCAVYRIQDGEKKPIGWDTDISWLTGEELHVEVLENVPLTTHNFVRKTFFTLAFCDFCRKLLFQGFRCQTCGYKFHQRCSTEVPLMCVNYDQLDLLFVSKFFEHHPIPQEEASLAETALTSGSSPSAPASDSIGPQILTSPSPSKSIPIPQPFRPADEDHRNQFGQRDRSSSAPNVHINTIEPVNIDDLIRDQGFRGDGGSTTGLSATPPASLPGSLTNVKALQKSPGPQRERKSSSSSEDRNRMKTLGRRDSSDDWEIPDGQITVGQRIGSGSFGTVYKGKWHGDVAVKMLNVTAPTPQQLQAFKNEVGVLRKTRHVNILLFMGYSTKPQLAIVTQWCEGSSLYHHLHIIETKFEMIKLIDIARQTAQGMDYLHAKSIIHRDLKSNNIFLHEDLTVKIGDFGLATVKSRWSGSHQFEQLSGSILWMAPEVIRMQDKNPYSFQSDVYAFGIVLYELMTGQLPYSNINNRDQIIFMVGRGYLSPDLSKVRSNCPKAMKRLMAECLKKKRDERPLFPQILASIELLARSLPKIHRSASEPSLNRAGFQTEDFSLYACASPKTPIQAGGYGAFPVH
UniProt Q15746, sequence (whole entry, looked up): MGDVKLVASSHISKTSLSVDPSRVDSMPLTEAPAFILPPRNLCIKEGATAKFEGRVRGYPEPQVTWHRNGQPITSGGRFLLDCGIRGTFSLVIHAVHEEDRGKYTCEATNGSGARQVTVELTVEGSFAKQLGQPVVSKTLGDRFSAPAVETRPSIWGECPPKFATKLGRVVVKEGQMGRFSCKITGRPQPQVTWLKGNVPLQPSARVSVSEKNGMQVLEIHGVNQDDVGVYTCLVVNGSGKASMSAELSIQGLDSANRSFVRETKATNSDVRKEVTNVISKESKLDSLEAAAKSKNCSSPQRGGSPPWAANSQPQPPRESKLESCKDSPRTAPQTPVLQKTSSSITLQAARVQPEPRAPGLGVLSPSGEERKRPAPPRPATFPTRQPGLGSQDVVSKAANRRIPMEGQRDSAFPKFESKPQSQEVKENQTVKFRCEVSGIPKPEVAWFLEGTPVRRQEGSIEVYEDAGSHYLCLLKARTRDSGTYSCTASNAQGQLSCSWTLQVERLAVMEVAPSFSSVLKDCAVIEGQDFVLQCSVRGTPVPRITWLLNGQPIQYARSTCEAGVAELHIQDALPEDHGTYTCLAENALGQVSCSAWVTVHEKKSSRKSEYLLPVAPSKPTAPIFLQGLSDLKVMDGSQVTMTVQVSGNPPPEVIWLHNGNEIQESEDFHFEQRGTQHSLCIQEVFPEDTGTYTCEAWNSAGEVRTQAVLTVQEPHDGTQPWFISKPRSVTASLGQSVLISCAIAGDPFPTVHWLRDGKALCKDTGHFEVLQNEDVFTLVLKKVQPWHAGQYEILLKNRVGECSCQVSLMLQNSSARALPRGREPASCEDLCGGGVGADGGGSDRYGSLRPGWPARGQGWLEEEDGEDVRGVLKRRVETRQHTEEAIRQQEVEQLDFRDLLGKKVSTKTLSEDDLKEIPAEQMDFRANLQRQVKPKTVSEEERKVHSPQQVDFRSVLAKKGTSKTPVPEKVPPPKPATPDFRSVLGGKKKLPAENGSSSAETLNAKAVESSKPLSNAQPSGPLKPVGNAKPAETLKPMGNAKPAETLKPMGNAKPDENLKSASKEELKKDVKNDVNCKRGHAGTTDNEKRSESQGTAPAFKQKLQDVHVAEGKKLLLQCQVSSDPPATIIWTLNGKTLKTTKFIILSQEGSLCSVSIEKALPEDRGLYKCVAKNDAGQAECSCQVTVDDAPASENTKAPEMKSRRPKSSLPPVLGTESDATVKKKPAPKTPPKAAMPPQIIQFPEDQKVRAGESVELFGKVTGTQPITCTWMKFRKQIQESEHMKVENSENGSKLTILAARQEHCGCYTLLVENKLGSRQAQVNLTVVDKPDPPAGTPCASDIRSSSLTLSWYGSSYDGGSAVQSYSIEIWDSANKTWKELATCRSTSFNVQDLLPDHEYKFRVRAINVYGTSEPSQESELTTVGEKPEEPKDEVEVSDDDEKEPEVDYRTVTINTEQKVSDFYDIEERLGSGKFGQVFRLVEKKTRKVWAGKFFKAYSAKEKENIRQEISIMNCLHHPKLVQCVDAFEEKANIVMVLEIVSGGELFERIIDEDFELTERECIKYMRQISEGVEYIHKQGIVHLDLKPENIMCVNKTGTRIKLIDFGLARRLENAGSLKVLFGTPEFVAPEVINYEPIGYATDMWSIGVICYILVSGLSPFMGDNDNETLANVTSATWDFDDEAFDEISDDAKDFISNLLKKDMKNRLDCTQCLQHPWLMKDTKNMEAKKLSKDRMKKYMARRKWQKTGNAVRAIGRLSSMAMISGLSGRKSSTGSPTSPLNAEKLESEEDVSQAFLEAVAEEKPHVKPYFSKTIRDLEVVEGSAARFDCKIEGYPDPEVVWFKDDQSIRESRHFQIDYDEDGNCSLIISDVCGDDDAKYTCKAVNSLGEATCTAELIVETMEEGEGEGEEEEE
UniProt Q96BR1, sequence (whole entry, looked up): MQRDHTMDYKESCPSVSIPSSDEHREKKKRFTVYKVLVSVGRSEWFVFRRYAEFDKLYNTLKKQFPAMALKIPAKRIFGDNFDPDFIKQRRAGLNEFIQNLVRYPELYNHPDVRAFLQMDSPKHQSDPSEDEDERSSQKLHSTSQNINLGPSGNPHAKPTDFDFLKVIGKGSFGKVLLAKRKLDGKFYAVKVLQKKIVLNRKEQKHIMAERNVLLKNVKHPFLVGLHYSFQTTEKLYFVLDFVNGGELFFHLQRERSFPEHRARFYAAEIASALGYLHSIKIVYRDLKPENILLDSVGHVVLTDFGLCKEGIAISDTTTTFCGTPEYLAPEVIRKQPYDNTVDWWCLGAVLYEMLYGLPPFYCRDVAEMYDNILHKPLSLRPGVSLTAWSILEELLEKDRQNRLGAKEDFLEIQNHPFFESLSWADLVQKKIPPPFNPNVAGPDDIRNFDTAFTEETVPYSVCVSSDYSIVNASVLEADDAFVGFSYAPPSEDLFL
UniProt Q9P1W9, sequence (whole entry, looked up): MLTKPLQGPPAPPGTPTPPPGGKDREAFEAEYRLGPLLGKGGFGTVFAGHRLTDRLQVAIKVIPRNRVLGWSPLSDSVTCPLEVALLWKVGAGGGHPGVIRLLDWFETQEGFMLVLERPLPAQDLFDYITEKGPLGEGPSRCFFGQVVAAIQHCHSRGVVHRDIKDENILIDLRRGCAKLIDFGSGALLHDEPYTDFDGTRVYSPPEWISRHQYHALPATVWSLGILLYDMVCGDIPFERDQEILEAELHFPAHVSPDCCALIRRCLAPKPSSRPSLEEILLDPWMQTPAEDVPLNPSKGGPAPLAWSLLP
UniProt P21127, sequence (whole entry, looked up): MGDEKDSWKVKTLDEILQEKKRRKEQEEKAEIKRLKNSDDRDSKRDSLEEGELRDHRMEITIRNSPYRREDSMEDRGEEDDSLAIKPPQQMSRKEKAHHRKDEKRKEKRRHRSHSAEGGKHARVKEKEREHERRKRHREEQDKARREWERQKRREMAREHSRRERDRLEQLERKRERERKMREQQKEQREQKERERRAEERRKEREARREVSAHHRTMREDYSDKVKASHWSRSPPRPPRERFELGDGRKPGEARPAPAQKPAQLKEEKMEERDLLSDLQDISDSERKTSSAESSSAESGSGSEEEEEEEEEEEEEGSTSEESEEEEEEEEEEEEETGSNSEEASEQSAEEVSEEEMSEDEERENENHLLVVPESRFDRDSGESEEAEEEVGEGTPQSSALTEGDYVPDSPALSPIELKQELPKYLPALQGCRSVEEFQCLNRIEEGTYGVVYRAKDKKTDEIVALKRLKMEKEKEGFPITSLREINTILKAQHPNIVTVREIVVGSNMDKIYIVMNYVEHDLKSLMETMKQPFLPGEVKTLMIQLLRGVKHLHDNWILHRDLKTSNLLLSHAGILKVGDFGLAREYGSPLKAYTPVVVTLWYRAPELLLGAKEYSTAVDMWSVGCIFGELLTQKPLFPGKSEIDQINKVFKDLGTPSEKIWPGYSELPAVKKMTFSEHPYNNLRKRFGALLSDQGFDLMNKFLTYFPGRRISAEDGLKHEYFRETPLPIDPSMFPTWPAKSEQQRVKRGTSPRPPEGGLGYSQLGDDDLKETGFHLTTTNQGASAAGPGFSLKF

Series 1
SMILES: Cc1cc(Nc2cc(N3CCN(C)CC3)nc(Sc3ccc(NC(=O)C4CC4)cc3)n2)[nH]n1
Effect on: enzyme activity
Action: inhibitor
Tested at: 0.5 µM
Reference: control
target	remaining activity
Ephrin type-A receptor 7 (EPHA7, Homo sapiens, UniProt Q15375)	74.7%
Glycogen synthase kinase-3 alpha (GSK3A, Homo sapiens, UniProt P49840)	101%
Ribosomal protein S6 kinase beta-1 (RPS6KB1, Homo sapiens, UniProt P23443)	96%
Protein kinase C epsilon type (PRKCE, Homo sapiens, UniProt Q02156)	97.8%
Protein kinase C gamma type (PRKCG, Homo sapiens, UniProt P05129)	94.2%
NUAK family SNF1-like kinase 1 (NUAK1, Homo sapiens, UniProt O60285)	18.5%
Tyrosine-protein kinase CSK (CSK, Homo sapiens, UniProt P41240)	78.1%
Serine/threonine-protein kinase pim-2 (PIM2, Homo sapiens, UniProt Q9P1W9)	97.3%
Serine/threonine-protein kinase Sgk1 (SGK1, Homo sapiens, UniProt O00141)	116%

Series 2
SMILES: CCCOc1ccc([C@H]2[C@H](C(=O)O)[C@@H](c3ccc4c(c3)OCO4)CN2CC(=O)Nc2c(CC)cccc2CC)cc1
Technique: competition with immobilised ligand
Tested at: 1 µM
target	effect on	remaining binding [%]
Phosphatidylinositol 3-kinase catalytic subunit type 3 (PIK3C3, Homo sapiens, UniProt Q8NEB9)	cell-free assay	78
Serine/threonine-protein kinase PLK2 (PLK2, Homo sapiens, UniProt Q9NYY3)	cell-free assay	79
Serine/threonine-protein kinase PAK 6 (PAK6, Homo sapiens, UniProt Q9NQU5)	cell-free assay	68
Serine/threonine-protein kinase B-raf (BRAF, Homo sapiens, UniProt P15056, V600E)	cell-free assay	76
Serine/threonine-protein kinase B-raf (BRAF, Homo sapiens, UniProt P15056)	cell-free assay	80
Myosin light chain kinase, smooth muscle (MYLK, Homo sapiens, UniProt Q15746)	cell-free assay	85
Serine/threonine-protein kinase Sgk3 (SGK3, Homo sapiens, UniProt Q96BR1)	cell-free assay	63
Cyclin-dependent kinase 11B (CDK11B, Homo sapiens, UniProt P21127)	cell-free assay	100
Dual specificity mitogen-activated protein kinase kinase 6 (MAP2K6, Homo sapiens, UniProt P52564)	cell-free assay	100
SRSF protein kinase 3 (SRPK3, Homo sapiens, UniProt Q9UPE1)	cell-free assay	100
Leucine-rich repeat serine/threonine-protein kinase 2 (LRRK2, Homo sapiens, UniProt Q5S007, G2019S)	cell-free assay	91
Myosin-IIIa (MYO3A, Homo sapiens, UniProt Q8NEV4)	binding	100
Epidermal growth factor receptor (EGFR, Homo sapiens, UniProt P00533, del747-752/P753S)	cell-free assay	81
Serine/threonine-protein kinase D2 (PRKD2, Homo sapiens, UniProt Q9BZL6)	cell-free assay	84
eIF-2-alpha kinase GCN2, C-terminal kinase domain (EIF2AK4, Homo sapiens, UniProt Q9P2K8, S808G)	cell-free assay	90
Ephrin type-A receptor 4 (EPHA4, Homo sapiens, UniProt P54764)	cell-free assay	97

Series 3
Compound: CC(C)C[C@@H]1NC(=O)[C@@H](N(C)C(=O)[C@H](CC2CCC2)NC(=O)[C@@H]2C[C@@H](F)CN2C(=O)C2(C(F)(F)F)CC(F)(F)C2)CCCCNC(=O)C2(CC2)NC(=O)[C@H](Cc2cc(Cl)ccc2Cl)N(C)C1=O
cell line	assay	conditions	scale	cell count
NCI-H446	Vi-Cell counting	20 nM, 3 days, with: Mps1 inhibitor 3 nM	reference: DMSO	0.816 and 0.711
NCI-H82	Vi-Cell counting	20 nM, 6 days	reference: DMSO	0.91 and 1.1 and 1.19
NCI-H446 sgCtrl	dose-response	62.5 nM, 6 d	reference: DMSO-treated	0.382 and 0.334 and 0.296
NCI-H446	Vi-Cell counting	6 nM, 3 days, without Mps1 inhibitor	reference: DMSO	0.56 and 0.487
NCI-H82	Vi-Cell counting	2 µM, 6 days	reference: DMSO	0.39 and 0.591 and 0.4

Series 4
Host: human
Medium: microsomes or S9
Tested at: 2 µM
Time: 0.5 h
SMILES	remaining compound [%]
COc1ccc2ccccc2c1-c1cc(Cn2c(C)c(C)ncc2=O)on1	3.58
COc1cc2c(=O)n(CCO)c(=O)n(CCCN(C)C)c2cc1OC	71.8
N#Cc1nnc2ccccc2c1Oc1ccc2ncccc2c1	50.3
C[C@@H]1C[C@H]2[C@@H]3CCC4=CC(=O)C=C[C@]4(C)C3(F)[C@@H](O)C[C@]2(C)[C@@]1(O)C(=O)CO (stereo partly drawn)	75.2
CCC1c2cccn2-c2sc3c(c2CN1C(=O)Nc1ccc(C)cc1C)CCCC3 (stereo not drawn)	1.75
Cc1cc(C)n(-c2ncnc3sc4c(c23)CC(C)CC4)n1 (stereo not drawn)	3.36
Cc1cccc(-n2ccnc2S(=O)(=O)C(C)C(=O)N(C(C)C)C(C)C)c1 (stereo not drawn)	0.0725
O=S(=O)(Nc1ccc(N2CCOCC2)cc1)c1ccc(-c2nnc(C3CCC3)o2)o1	51.1
COc1c2c(cc3c1OCO3)CCN(C)C(C(C)=O)=C2	17.1

Some of these lines once more (series 1):
target	remaining activity
Ribosomal protein S6 kinase beta-1 (RPS6KB1, Homo sapiens, UniProt P23443)	96%
Protein kinase C epsilon type (PRKCE, Homo sapiens, UniProt Q02156)	97.8%
Protein kinase C gamma type (PRKCG, Homo sapiens, UniProt P05129)	94.2%
